Literature values as cited in several papers.
Several values in a cell are separate wells, animals, samples, runs or records. Numbers after ± are the reported error. ≈ marks a conversion by molar mass, not a printed value.
Sequence of UniProt Q9C098 (whole entry, looked up): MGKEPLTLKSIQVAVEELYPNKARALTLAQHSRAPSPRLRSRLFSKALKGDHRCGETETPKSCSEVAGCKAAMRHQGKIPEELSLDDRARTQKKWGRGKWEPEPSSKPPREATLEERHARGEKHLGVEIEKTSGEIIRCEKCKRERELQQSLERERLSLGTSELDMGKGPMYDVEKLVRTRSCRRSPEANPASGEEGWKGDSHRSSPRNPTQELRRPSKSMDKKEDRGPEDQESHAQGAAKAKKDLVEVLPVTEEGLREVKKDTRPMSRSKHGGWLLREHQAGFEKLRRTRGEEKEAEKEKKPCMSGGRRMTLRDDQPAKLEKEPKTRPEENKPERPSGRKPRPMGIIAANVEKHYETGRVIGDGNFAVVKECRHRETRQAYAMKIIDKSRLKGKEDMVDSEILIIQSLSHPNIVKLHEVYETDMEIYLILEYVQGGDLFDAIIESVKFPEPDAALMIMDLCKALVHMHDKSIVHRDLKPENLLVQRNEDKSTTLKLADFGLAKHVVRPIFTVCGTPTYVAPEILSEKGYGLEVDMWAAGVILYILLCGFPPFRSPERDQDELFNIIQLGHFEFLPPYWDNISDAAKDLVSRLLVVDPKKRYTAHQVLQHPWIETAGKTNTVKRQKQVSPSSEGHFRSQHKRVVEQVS

`Cc1cn([C@H]2C=C[C@@H](CO)O2)c(=O)[nH]c1=O` gave an oral bioavailability of 98% (mouse).
`COc1cc(N2CCC(N3CCN(C)CC3)CC2)ccc1Nc1ncc(Cl)c(Nc2ccccc2P(C)(C)=O)n1`: “Cmax at steady state” 1150 ng/mL (patients with cancer, plasma; dose not given, geometric mean).
`Cc1nc(Nc2ncc(C(=O)Nc3c(C)cccc3Cl)s2)cc(N2CCN(CCO)CC2)n1` gave a crossover pressure of 160 to 180 bar (supercritical CO2).
`O=C1C=CC(=O)c2ccccc21` — result for “midpoint potential difference”: 20 mV (dimethylformamide; reference: compound over ubiquinone).
`O=C(O)CCCCCCCCCCCCCCC(=O)O` — result for “Cmax fold increase”: 2 fold (monkey; dose not given, with: probenecid; reference: with over without probenecid).
`CNC(=O)c1ccccc1Sc1ccc2c(/C=C/c3ccccn3)n[nH]c2c1` gave a diarrhoea incidence of 54% (human; concentration not given, clinical).
`O=C(O)c1ccccc1O` gave a solubility of < 1000 µg/mL (water).
`CN(C)C(=O)c1cc2cnc(Nc3ccc(N4CCNCC4)cn3)nc2n1C1CCCC1` has a dose excreted of 69.1% (human, feces; oral, 600 mg, radiolabelled; reference: dose).
With `CCCCc1oc2ccccc2c1C(=O)c1cc(I)c(OCCN(CC)CC)c(I)c1` the crossover pressure was 180 to 210 bar (supercritical CO2).
`Cn1c(Cn2ccc(C(F)(F)F)c(Oc3cc(Cl)cc(C#N)c3)c2=O)n[nH]c1=O` has a Cmin reduction of 70 to 85% (human; dose not given, moderate induction, with: efavirenz).
The solubility of `C=CC(=O)N1CCC[C@@H](n2nc(-c3ccc(Oc4ccccc4)cc3)c3c(N)ncnc32)C1` is reported as 98.2 µg/mL (≈ 223 µM) (FaSSIF; literature value).
With `CC(=O)c1c(C)c2cnc(Nc3ccc(N4CCNCC4)cn3)nc2n(C2CCCC2)c1=O` the AUC was 7050 ng·h/mL (rat female; 200 mg/kg, day 3 of cycle 21).
Under respiratory function, `Cc1cc(-c2nccc3c2ccn3CC(=O)Nc2ccc(-c3cnccn3)cn2)ccn1` is recorded as “no effect” (rat; oral, up to 200 mg/kg).
The MRT(0-inf) of `COc1cc2c(Oc3ccc4[nH]c(C)cc4c3F)ccnc2cc1OCC1(N)CC1` is reported as 162 ± 41.3 h (human, fasting; 5 mg).
`CNC(=O)c1ccc(N2C(=S)N(c3ccc(C#N)c(C(F)(F)F)c3)C(=O)C2(C)C)cc1F` — result for “adverse event incidence”: 34% (measured: fatigue; post-docetaxel patients; dose not given, AFFIRM trial).
`Cc1cc(C)c(CNC(=O)c2cc(Cl)c3c(c2C)O[C@@](C)([C@H]2CC[C@H](N(C)C)CC2)O3)c(=O)[nH]1` gave an AUC(0-inf) of 1660 ng·h/mL (human, plasma; oral, 50 mg single dose, study, geometric mean).
`NC(=O)c1cn(Cc2c(F)cccc2F)nn1` gave a solubility of < 1000 µg/mL (water).
For `CC#CC(=O)N1CC[C@@H](n2c(=O)n(-c3ccc(Oc4ccccc4)cc3)c3c(N)ncnc32)C1`, the AUC(0-last) was 8500 ± 1700 ng·h/mL (human; 480 mg once daily).
`C[Si](C)(C)O[Si](C)(C)O[Si](C)(C)C` has a log KAW of 2.52 (25 °C).
For `CCC1(c2ccccc2)C(=O)NCNC1=O`, the solubility was < 1000 µg/mL (water).
Under “amount in tissue”, `c1ccc2ccccc2c1` is recorded as 0.224 ng/well and 0.211 ng/well and 0.23 ng/well (zebrafish embryos, whole embryo; 148.7 ng/well, 48 hpf, single exposure).
`Nc1cc(C(F)(F)F)c(-c2nc(N3CCOCC3)nc(N3CCOCC3)n2)cn1` has a remaining activity of 85% (DCLK3 (Homo sapiens, UniProt Q9C098); enzyme activity; 10 µM; reference: untreated).
`CNCc1cc(-c2ccccc2F)n(S(=O)(=O)c2cccnc2)c1` has a Ctrough of 1.11 ng/mL (human, plasma; 10 mg multiple dose, observed clinical data).
With `CCn1cc(C(=O)O)c(=O)c2cc(F)c(N3CCNCC3)nc21` the free Cmax was 14000 nM (plasma).
With `c1ccc2c(c1)ccc1ccccc12` the Km was 0.51 µM (metabolism, substrate; human liver microsomes).
Under “AUC(0-24 h), mean”, `C#C[C@]1(O)CC[C@H]2[C@@H]3CCc4cc(O)ccc4[C@H]3CC[C@@]21C` is recorded as 0.799 ng·h/mL (human, fed; 0.025 mg, multiple doses).
Under “grade ≥3 anaemia incidence”, `C[C@@H]1COCCN1c1cc([C@]2(O)C[C@H]3CC[C@@H](C2)O3)c2cnn(-c3cc[nH]n3)c2n1` is recorded as 32% (patients with advanced solid tumours; dose not given).
For `Cc1nsc(-c2nnc3n2CCN(C(=O)c2ccc(F)cc2)[C@@H]3C)n1`, the Vz/F was 189 L (human; oral, mean reported).
Under “unbound AUC ratio”, `N[C@@H]1c2cccnc2[C@H](OC(=O)N2CCC(n3c(=O)[nH]c4ncccc43)CC2)CC[C@H]1c1cccc(F)c1F` is recorded as 3.9 fold (human, severe hepatic impairment; reference: normal hepatic function).
`COCCc1ccc(OCC(O)CNC(C)C)cc1` (centres unmarked) has an AUC(0-24 h) of 533 ng·h/mL (human fasted; 100 mg multiple doses, day 5, mean).
For `Cn1c(=O)c2c(ncn2CC(=O)Nc2ccc(-c3ccccc3)nn2)n(C)c1=O`, “incidence of nausea and vomiting” read 25 to 30% (human, advanced cancer; dose not given, phase I trial; reference: subjects).
`O=C1NCCN1CCN1CCC(c2cn(-c3ccc(F)cc3)c3ccc(Cl)cc23)CC1` gave a free Cmax of 2 nM (human).
`C[C@@H]1O[C@@H](OC[C@H]2O[C@@H](Oc3c(-c4ccc(O)c(O)c4)oc4cc(O)cc(O)c4c3=O)[C@H](O)[C@@H](O)[C@@H]2O)[C@H](O)[C@H](O)[C@H]1O` gave a solubility of < 1000 µg/mL (water).
`Nc1ccn([C@@H]2O[C@H](CO)[C@@H](O)C2(F)F)c(=O)n1` — result for “grade 3-4 neutropenia incidence”: 27% (metastatic pancreatic cancer patients; dose not given).
The exposure decrease of `COc1cc2nccc(Oc3ccc(NC(=O)C4(C(=O)Nc5ccc(F)cc5)CC4)cc3)c2cc1OC` is reported as 77% (healthy human volunteers; single dose, CYP3A4 inducer, with: rifampin 600 mg daily 31 days).
The MIC of `CNC(C)C1CCC(N)C(OC2C(N)CC(N)C(OC3OCC(C)(O)C(NC)C3O)C2O)O1` (centres unmarked) is reported as 1 µg/mL (≈ 2.09 µM) (Escherichia coli; clinical isolate RKI-No_581/16).
With `CC(C)COCC(CN(Cc1ccccc1)c1ccccc1)N1CCCC1` (centres unmarked) the free Cmax was 63.6 nM (human).
`CN(C)C(=N)N=C(N)N` — result for “CLint passive liver”: 0.012 mL/min (healthy human).
With `CNC(=O)c1cc(Oc2ccc(NC(=O)Nc3ccc(Cl)c(C(F)(F)F)c3)cc2)ccn1` the crossover pressure was 140 to 160 bar (supercritical CO2).
`CC(C)(C)c1ccc(C(O)CCCN2CCC(C(O)(c3ccccc3)c3ccccc3)CC2)cc1` (centres unmarked) has a free Cmax of 84.6 nM (human).
`Nc1ccn([C@H]2CO[C@@H](CO)S2)c(=O)n1` gave an oral bioavailability of 65 to 80% (human; 800 mg).
With `COc1ccc2c(c1)c(CC(=O)O)c(C)n2C(=O)c1ccc(Cl)cc1` the free Cmax was 69.9 nM (plasma).
With `Cc1c(OCC(F)(F)[18F])ccnc1C[S+]([O-])c1nc2ccccc2[nH]1` (centres unmarked) the plasma half-life was ~1.5 h.
For `Nc1cccc2c1C(=O)N(C1CCC(=O)NC1=O)C2=O` (centres unmarked), “incidence of grade 3 thrombocytopenia” read 21% (relapsed refractory multiple myeloma patients; dose not given, grade up to 4).
The CL/F of `CN(C)CCC[C@@]1(c2ccc(F)cc2)OCc2cc(C#N)ccc21` is reported as 16.3 L/h (population PK, sparse sampling; human patients up to sample A years).
The clearance of `CCc1cc(/C(C)=N/OCc2ccc(C3CCCCC3)c(C(F)(F)F)c2)ccc1CN1CC(C(=O)O)C1` is reported as 0.811 L/h (population PK; human, CYP2C9*3/*3).
With `CCCS(=O)(=O)Nc1ccc(F)c(C(=O)c2c[nH]c3ncc(-c4ccc(Cl)cc4)cc23)c1F` the Vd was 0.211 L/kg (rat; intravenous, single dose).
With `CC1(C)C[C@@H]1C(=O)N/C(=C\CCCCSC[C@H](N)C(=O)O)C(=O)O` the Vd was 0.19 L/kg (human).
For `NS(=O)(=O)c1cc2c(cc1Cl)N=CNS2(=O)=O`, the crossover pressure was ~17 MPa (solubility in supercritical CO2).
`Cc1cn([C@H]2C[C@H](N=[N+]=[N-])[C@@H](CO)O2)c(=O)[nH]c1=O` gave an oral bioavailability of 45% (monkey; 60 mg/kg).
`COCCOC(=O)C1=C(C)NC(C)=C(C(=O)OC(C)C)C1c1cccc([N+](=O)[O-])c1` (centres unmarked) has a solubility of < 1000 µg/mL (water).
Under “increase in Cmax”, `Cc1nc(NC(=O)N2CCC[C@H]2C(N)=O)sc1-c1ccnc(C(C)(C)C(F)(F)F)c1` is recorded as 145% (human; oral, 300 mg single dose, with: meal, low fat, low calorie; reference: fasted).
Under “plasma fraction unbound”, `NC[C@H]1O[C@H](O[C@H]2[C@H](O)[C@@H](O[C@H]3O[C@H](CO)[C@@H](O)[C@H](N)[C@H]3O)[C@H](N)C[C@@H]2N)[C@H](N)C[C@@H]1O` is recorded as 1 (plasma).
`C#Cc1cccc(Nc2ncnc3cc(OCCOC)c(OCCOC)cc23)c1` has a solubility of < 1000 µg/mL (water).
`O=C1Nc2ccc(Cl)cc2[C@@](C#CC2CC2)(C(F)(F)F)O1` gave a solubility of 182 µg/mL (≈ 577 µM) (FaSSIF; literature value).
Under “fraction unbound in enterocytes”, `CC(C)(C)c1cc(C(C)(C)C)c(NC(=O)c2c[nH]c3ccccc3c2=O)cc1O` is recorded as 0.279 (human).
With `C[C@@H]1C[C@H]2[C@@H]3CCC4=CC(=O)C=C[C@]4(C)[C@@]3(F)[C@@H](O)C[C@]2(C)[C@@]1(O)C(=O)CO` the diarrhoea incidence was 0% (human; concentration not given, clinical).
`Cc1cn([C@@H]2C[C@@H](O)[C@H](CO)O2)c(=O)[nH]c1=O` has an oral bioavailability of 68% (human).
The Cmax of `O=c1c(O)c(-c2ccc(O)c(O)c2)oc2cc(O)cc(O)c12` is reported as 50 nM (plasma; concentration not given, total, steady state).
With `C[C@@H](Oc1cc(-c2cnn(C3CCNCC3)c2)cnc1N)c1c(Cl)ccc(F)c1Cl` the AUCtau was 6990 ng·h/mL (human; 280 mg/m2 twice daily, steady state, mean).
The MIC of `CC1(C)S[C@@H]2[C@H](NC(=O)[C@H](N)c3ccccc3)C(=O)N2[C@H]1C(=O)O` is reported as > 16 µg/mL (Escherichia coli; clinical isolate RKI 6 A-6).
`CC(=O)N1CCN(c2ccc(OCC3COC(Cn4ccnc4)(c4ccc(Cl)cc4Cl)O3)cc2)CC1` (centres unmarked) gave a Cmax of 3200 nM (plasma; concentration not given, total, steady state).

Excerpt of the above:
`Cc1cn([C@H]2C=C[C@@H](CO)O2)c(=O)[nH]c1=O` gave an oral bioavailability of 98% (mouse).
`COc1cc(N2CCC(N3CCN(C)CC3)CC2)ccc1Nc1ncc(Cl)c(Nc2ccccc2P(C)(C)=O)n1`: “Cmax at steady state” 1150 ng/mL (patients with cancer, plasma; dose not given, geometric mean).
`Cc1nc(Nc2ncc(C(=O)Nc3c(C)cccc3Cl)s2)cc(N2CCN(CCO)CC2)n1` gave a crossover pressure of 160 to 180 bar (supercritical CO2).
`O=C1C=CC(=O)c2ccccc21` — result for “midpoint potential difference”: 20 mV (dimethylformamide; reference: compound over ubiquinone).
